Assay results pooled from the literature.
A part holds a random share of what one study measured. Positions count from the first letter of the parent shown.

Series 1 — target: CCND1, cyclin fold, Cln2 fusion (human); technique: yeast growth competition, sequencing; matrix: yeast; setting: weak parent motif; reference: not given; direction: higher = stronger binding; endpoint: normalised enrichment score
Starting sequence: DOT1L docking peptide (human); SEAKRRIVFTITT; partner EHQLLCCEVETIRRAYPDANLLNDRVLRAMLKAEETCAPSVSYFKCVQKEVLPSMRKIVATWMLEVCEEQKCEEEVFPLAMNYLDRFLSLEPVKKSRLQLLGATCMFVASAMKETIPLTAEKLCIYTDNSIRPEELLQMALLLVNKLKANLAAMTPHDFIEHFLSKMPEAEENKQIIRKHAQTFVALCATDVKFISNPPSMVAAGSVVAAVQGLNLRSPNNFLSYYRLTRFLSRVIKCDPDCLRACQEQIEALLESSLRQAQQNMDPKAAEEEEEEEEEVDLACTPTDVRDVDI
SEAKRRAVFTITT [I7A]: -0.0324
SEAKRRIVFTITA [T13A]: 0.526
SEAKRRIVATITT [F9A]: 0.00427
SEAKRRIVFAITT [T10A]: 0.155
SEAKRRIAFTITT [V8A]: 0.324
SEAKARIVFTITT [R5A]: 0.143

Series 2 — technique: RNA Bind-n-Seq; form: RNA; matrix: in vitro; tested at: 1 µM; setting: whole 134-nt RNA, ends assumed; together with: 150 mM KCl; reference: input library; direction: higher = stronger binding; endpoint: log2 enrichment
Target: Ras GTPase-activating protein-binding protein 1, RRM domain (G3BP1, Homo sapiens, UniProt Q13283)
Sequence of UniProt Q13283 (whole entry, looked up): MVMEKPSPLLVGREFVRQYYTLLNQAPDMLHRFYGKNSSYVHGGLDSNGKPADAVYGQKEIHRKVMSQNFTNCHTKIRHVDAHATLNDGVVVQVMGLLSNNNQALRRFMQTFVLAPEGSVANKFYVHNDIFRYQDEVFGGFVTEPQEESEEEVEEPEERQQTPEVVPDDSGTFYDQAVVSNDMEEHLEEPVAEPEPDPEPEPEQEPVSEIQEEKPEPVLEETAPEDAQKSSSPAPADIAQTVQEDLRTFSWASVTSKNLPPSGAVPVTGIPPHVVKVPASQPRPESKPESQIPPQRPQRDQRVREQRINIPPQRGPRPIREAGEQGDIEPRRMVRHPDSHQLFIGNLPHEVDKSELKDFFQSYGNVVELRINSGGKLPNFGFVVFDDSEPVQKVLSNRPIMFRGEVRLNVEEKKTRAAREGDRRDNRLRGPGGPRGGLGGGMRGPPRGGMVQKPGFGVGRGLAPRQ
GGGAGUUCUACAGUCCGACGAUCAGUCCUGUGCUACACAUCGUAUGUACCGAAUCGGGGUGGGGUUUUUGGGGUUUGGGGAAAGUAUUAUGUUACGCCGUUCGGAUCUGCACUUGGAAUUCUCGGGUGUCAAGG: 0.54
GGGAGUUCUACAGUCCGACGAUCUGGGAGGUGGAUUUUGUUUAUUUUUUUAGCUCAUUUCCAGGGGUGGGAAAUUUUUUUUAAUAUGUGUCAUGAAUAAAGUUGUUUUUGAAAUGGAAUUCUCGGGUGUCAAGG: 1.23
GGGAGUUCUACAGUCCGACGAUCGGCUGCUGGAGUGCCGUGAGCAGGCCGCGGGAACGUCGCCGUCACCUUGUCUCGGGGCCUCGGCGCUGCUUCCCGCCAAAACACGUUUACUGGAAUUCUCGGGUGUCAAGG: -0.63
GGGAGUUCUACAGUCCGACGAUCGCAGGAAGUAAAAACAAAUGGAAAUGCUGCGGAUAGUGGCAGGGGUGGGGGUUGCUAAGGAAAGGGUGGGAUGGGAGUGGGUAAAGAGUUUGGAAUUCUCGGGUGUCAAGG: 0.983
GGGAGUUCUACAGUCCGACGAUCUCCUGUGCUACACAUCGUAUGUACCGAAUCGGGUUUUUGGGUUUUUUUGGGUUUUUGGGAAAGUAUUAUGUUACGCCGUUCGGAUCUGCAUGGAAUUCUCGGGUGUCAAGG: -0.0091
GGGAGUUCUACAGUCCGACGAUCGUCCUGUGCUACACAUCGUAUGUACCGAAUCGGGAAAGGGAAAAAGGGAAAAAAAGGGAAAGUAUUAUGUUACGCCGUUCGGAUCUGCACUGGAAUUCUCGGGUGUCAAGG: 0.335
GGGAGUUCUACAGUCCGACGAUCCUGUGCUACACAUCGUAUGUACCGAAUCGGGGCCCCCCCGGGCCCCCCCGGCCCCCCCGGGAAAGUAUUAUGUUACGCCGUUCGGAUCUGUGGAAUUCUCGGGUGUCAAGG: -0.66
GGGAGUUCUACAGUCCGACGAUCUGGGAGGUGGAUUUUGUUUAUUUUUUUAGCUCAUUUCCAGGGGUGGGAAUUUUUUUUCAAUAUGUGUCAUGAAUAAAGUUGUUUUUGAAAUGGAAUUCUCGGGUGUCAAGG: 1.66
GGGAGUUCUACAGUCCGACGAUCAUUUGUACACAGACAGGGAAACUGGCAAGCUGAAGGGAGAGGCAACGGUCUCUUUUGAUGACCCACCUUCAGCUAAAGCAGCUAUUGACUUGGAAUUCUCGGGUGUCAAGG: 0.0122

Series 3 — technique: RNA Bind-n-Seq; form: RNA; matrix: in vitro; tested at: 365 nM; reference: no-protein control; direction: higher = stronger binding; endpoint: RBNS enrichment (R)
Target: RNA binding protein fox-1 homolog 2, RRM domain, GST-SBP tag (RBFOX2, Homo sapiens, UniProt O43251-10, residues 100-194)
Setting: natural RNA segment, single round, ends assumed
Target sequence (chain): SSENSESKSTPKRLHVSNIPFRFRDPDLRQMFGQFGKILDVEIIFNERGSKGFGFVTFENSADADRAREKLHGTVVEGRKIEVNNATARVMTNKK
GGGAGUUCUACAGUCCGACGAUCGUGGGAGCCGCCCUUCUUCAUCUUAGAGAACCAAGUGCCUCCUGUCUGAAAGGUGAGGGUGGCCUGACCUGGGCCUCUCCCUGCCCCUCCAUAGGUGGGUUUGUAGGGUCUGGAAUUCUCGGGUGCCAA: 0.204
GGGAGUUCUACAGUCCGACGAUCAAACAGACCUGUGUUCCACCCUCUGCAAGAUAAUGUCCAACUACCAAGGUGAUGUUAAGGGCAUAGAAGGGGCAUAUUUGUCUUCAGUUGAAUGCCAUUGUGUGCCAGUUUGGAAUUCUCGGGUGCCAA: 0.581
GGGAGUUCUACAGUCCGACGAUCACACUUCCAGGAACAUUAACAUGAAGGGAAGAGGUGAGCCACCCUCCUUGCCUGGCCUUAGCCGUUUCUUGGAGCAUCACUAAUGGCCCAGCCCCCAGGCACAAGGGGCAUGGAAUUCUCGGGUGCCAA: 0.633
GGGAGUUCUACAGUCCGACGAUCCUGGUUUUUCCUUGCCCCUGUGUGAAAAUAGGUCCUAAAUGACUGACUUCACUGCAUUAGACCCUAUAGCUGGUCUCACAAGACACUUUGUGCCCAGCUGUCACUCACUCUGGAAUUCUCGGGUGCCAA: 0.707
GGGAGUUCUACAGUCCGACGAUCCUGUCCAGGUUAGUUUACUCCUGACCACUAAUAGCAUUGUCAUUUGGGCUUUCUGUUGAAUGAAUCAACAAACCACAAUACUUCCUGGGACCUUUUGUACUUUAUUUGAAUGGAAUUCUCGGGUGCCAA: 0.372
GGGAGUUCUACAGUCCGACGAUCCCAAAUGUCACUUCUGCAUAAAGCAUGUAUGUCAUCUAUUUUUUCUUCAAUAAAGAGAUUUAAUAGCCAUUUCAAGAAAUCCCAUAAAGAACCUCUCUAUGUCCCUUUUUUGGAAUUCUCGGGUGCCAA: 3.93
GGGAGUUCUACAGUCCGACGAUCGCUUCAGGAACUUAAUGCCACUCAGUUCAACAUCACAGGUGAAAUCAUGUCUCAGUUCCCAUCUAGCAAGGUGGCUUCAGGAGAGCAGAAGGAGGACCAGUCUGAAGAUAUGGAAUUCUCGGGUGCCAA: 0.383
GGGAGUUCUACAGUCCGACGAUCGAUGGCGACAGGUUGGCUUAGGUGGAGGAAGAAAAGAGUUAUCAUUUUUAGACUAAAUCCACGCAUGAAAAAUAUUUCCUCAUUAUUCUUAUCUGCUUAGUGGAUUUUAUUGGAAUUCUCGGGUGCCAA: 4.98

Mixed results
PhoQ, residues 284 288 289 292 302 303 DDMDFR — fold induction (PhoP, residues 12 14 15 18 19 LHSVW (Escherichia coli, UniProt P23836); Sort-seq, measured: YFP reporter; E. coli; PhoQ-PhoP variant library, together with: 10 µM Mg2+; reference: high Mg2+ state, higher = stronger signaling): 0.759

For quick reference, copied from above (series 3):
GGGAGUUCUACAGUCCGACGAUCCCAAAUGUCACUUCUGCAUAAAGCAUGUAUGUCAUCUAUUUUUUCUUCAAUAAAGAGAUUUAAUAGCCAUUUCAAGAAAUCCCAUAAAGAACCUCUCUAUGUCCCUUUUUUGGAAUUCUCGGGUGCCAA: 3.93
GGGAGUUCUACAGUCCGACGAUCCUGUCCAGGUUAGUUUACUCCUGACCACUAAUAGCAUUGUCAUUUGGGCUUUCUGUUGAAUGAAUCAACAAACCACAAUACUUCCUGGGACCUUUUGUACUUUAUUUGAAUGGAAUUCUCGGGUGCCAA: 0.372
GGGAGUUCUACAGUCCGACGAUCGCUUCAGGAACUUAAUGCCACUCAGUUCAACAUCACAGGUGAAAUCAUGUCUCAGUUCCCAUCUAGCAAGGUGGCUUCAGGAGAGCAGAAGGAGGACCAGUCUGAAGAUAUGGAAUUCUCGGGUGCCAA: 0.383
